Measured values from different studies.
Every numbered part comes from another study and shows a few of its results, in no order.

Study 1 — method: protein binding microarray; form: double-stranded DNA, one strand shown; sample: in vitro; tested at: not given; reference: not given; direction: higher = stronger binding
Target: Histone acetyltransferase KAT6A, winged helix 2, GST fusion (KAT6A, Homo sapiens, UniProt Q92794, residues 85-181)
Notes: 8-mer, flanks averaged, mean of 2 arrays, mostly near background
Construct (chain): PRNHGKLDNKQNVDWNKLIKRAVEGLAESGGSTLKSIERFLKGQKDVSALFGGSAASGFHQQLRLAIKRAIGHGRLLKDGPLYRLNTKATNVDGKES
| Oligonucleotide | E-score |
| --- | --- |
| TAACATTA | -0.246 |
| CGGTTCTC | -0.0365 |
| GCCTCGAC | 0.0159 |
| CGAGGACC | -0.0546 |
| GGTTCGAC | 0.0698 |
| AATGTAGA | -0.0758 |
| CCCGCTTC | 0.0498 |
| GGGTACCC | 0.0965 |
| GACCCTGC | 0.101 |
| GACCGCGC | 0.118 |
| ACAGACAA | 0.131 |
| GACAAATC | -0.16 |
| CCGAGACA | -0.0472 |
| CAATCGCG | 0.00066 |
| ATCATTTG | -0.0652 |
| GAGAATAA | 0.025 |
| AACACCAC | -0.0492 |
| GGGAAATA | 0.0365 |
| GTCTACAC | -0.0441 |
| AGATAAAC | 0.113 |

Study 2 — method: protein-binding microarray; form: double-stranded DNA, one strand shown; sample: in vitro; tested at: 940 nM top; notes: 60-bp whole probe; added: salmon DNA 0.4 mg/ml; reference: random background probes; direction: higher = stronger binding; all sequences stand within: GCCTAGCAC … GTCTTGATTCGCTTGACGCTGCTG
Target: Interferon regulatory factor 5, full length, phosphomimetic (IRF5, Homo sapiens, UniProt Q13568-2, residues 1-514, S451D/S453D/S456D/S462D)
| Oligonucleotide | fitted relative affinity [z-score] |
| --- | --- |
| TGTGATCTCATATGAAAACAGTGCTAG | 0.365 |
| GACGATTTCCGTTCCGAGACGTGCTAG | 0.496 |
| TTCCAGCTGGTGACTAGCGAGTGCTAG | 0.0538 |
| GAGGATATCGGGTTTCGAGACGTGCTA | 1.32 |
| GTAGGTTTCGACTATCGGTTAGTGCTA | 8.22 |
| TTAGGTTACCTTTTCCTTTAGTGCTAG | 0.305 |
| TTAGATCTCAGACTAGATTAGTGCTAG | -0.35 |
| AGTAGCTGGGATTACAGGCAGTGCTAG | -0.514 |
| GACGATTTCAGTTTCGCGACGTGCTAG | 2.15 |
| GACGGTATCCACTTTCGGGACGTGCTA | 1.69 |
| TCATAATTCTGATTGGAACTGTGCTAG | -0.404 |
| GACGGTCTCGGTCTTGGGACGTGCTAG | 3.57 |
| GTCGATTTCGGGTTTCGAGACGTGCTA | 4.29 |
| GACGGACTGGGATTCGGGACGTGCTAG | -0.647 |
| GACGGTTTCGACTTGCGGGACGTGCTA | 7.47 |
| TCATTTCTATGTCTGTTACTGTGCTAG | 0.875 |
| TCAGGAAATGGGAAACCCACTGTGCTA | -0.0426 |
| TCTCTTTTGGCTTTCCTTTAGTGCTAG | 3.57 |
| GACGGTTTCGGTTCCGTGACGTGCTAG | 12.8 |
| TTAGGTATCGTTCTCCTTTAGTGCTAG | 5.81 |
| GCCTACTCGCTCGTCCGGAGGTGCTAG | -0.399 |
| AGTTTTCTCATTCGTCATTTCGTGCTA | 3.28 |
| TTAGGTTTCGGTATCGGATAGTGCTAG | 14.7 |
| ATCTTCATGAAGTTTTAATAAGTGCTA | -0.218 |

Study 3 — method: RNA Bind-n-Seq; form: RNA; sample: in vitro; tested at: 365 nM; reference: no-protein control; direction: higher = stronger binding
Target: RNA binding protein fox-1 homolog 2, RRM domain, GST-SBP tag (RBFOX2, Homo sapiens, UniProt O43251-10, residues 100-194)
Notes: natural RNA segment, single round, ends assumed
Construct (chain): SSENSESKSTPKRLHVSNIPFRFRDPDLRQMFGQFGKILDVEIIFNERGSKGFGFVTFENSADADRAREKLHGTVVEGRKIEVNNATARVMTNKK
| Oligonucleotide | RBNS enrichment (R) |
| --- | --- |
| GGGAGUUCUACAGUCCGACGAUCUUUUGAUCUGUAAUUUCUUCUCUAAAACUGCUGCAUCUGGUACAGUAGACUGUGGAAGGUGUUGAUUAUGUUUCCUCUGGGGCCUGGUAGGAUGCUAAUCCCUAGAGCAGUGGAAUUCUCGGGUGCCAA | 0.734 |
| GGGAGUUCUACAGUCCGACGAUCAUGCUGAAUAUAAUGUGAAUAGCAAAAUCUGGUAUGUUGUGACUAAGGCUUAAGAGUGCCUGUUUCUGACAAUAAAAUGUUCCAAUAUUAAUGAACAGUGCCAAAUACACUGGAAUUCUCGGGUGCCAA | 0.766 |
| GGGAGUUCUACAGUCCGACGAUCUGGUAAUAUUCUAUCCUUAUGACACUAUUGCAACCAAAUUGGCUUUACCAUCUUGGCUUUAGUAGGUAUAGAAGAAAGUGGAUUACCAUCUUUAUUUUGUAAUGUGUUAAUGGAAUUCUCGGGUGCCAA | 0.746 |
| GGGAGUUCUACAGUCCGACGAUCGUUUUUUUCAUUCCAUGUGCCCAGUUAAUCUUGCUUUCUUUGUUUGGCUGGGAUAGAGGGGUCAAGUUAUUAAUUUCUUCACACCUACCCUCCUUUUUUUCCCUAUCACUUGGAAUUCUCGGGUGCCAA | 1.38 |
| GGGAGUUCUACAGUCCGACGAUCAGAAAGAUUUUUUUUUAAGUAAACACCUUUCAAUCCCCAACACAAGCUGCUUCACAACUCCAGGCUAGAAGGCAGGAGAGCGAUCUGAUGUGUUUCUUUCAUUUGCCAGAUGGAAUUCUCGGGUGCCAA | 0.517 |
| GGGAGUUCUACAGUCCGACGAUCCAGGAAACCCUGGCUUGCUUGCCGAGCCUAAUGAAAGGGAAAGUCAGCUUUCAGAGCCAGUGAAGGAGCCACGUGAAUGGCCCUAGAACUGUGCCUAGUUCCUGUGGCCAUGGAAUUCUCGGGUGCCAA | 0.233 |
| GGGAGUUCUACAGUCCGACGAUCUUAUCCGUUGUCUCUGAAGUGGACAGUAUCCUUUCCUGCCCCGCCAAGCAUGCUCAGUGCCUUUUGGUUUCCCCUCCUUCCCCUAGAUUCAGUUUUGCUCCCUCUGGGUUUGGAAUUCUCGGGUGCCAA | 2.86 |
| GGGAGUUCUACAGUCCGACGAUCUCUUAUAUUGAGUCAGAUGCAUACUUUUAGAUUUGCAUUGGGGAAAAUGUACUAGCUAAAAAUGGAUACACAAUGAAGAAUUCUAUUUGGCUAAUUAAGAAUGAUAUACUUGGAAUUCUCGGGUGCCAA | 1.01 |
| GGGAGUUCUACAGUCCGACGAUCUAUUUUGUUCCCCAUGUUUAUGAAAGUCCUGCACAGUUUCAAAGGCAUGGUAAAUAAUAUAUCAAUGUUUAUGUAGUCUGUUACAGAAACAGCUAUAGAUAACAUUAUCCUGGAAUUCUCGGGUGCCAA | 0.604 |
| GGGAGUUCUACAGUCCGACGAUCUAUCCUGCACUUAAACUGAGUUUAAACUCUUUCAGCAGAUCUCCCUUCGUGGUAUCUUCACAGAUCACAAGUAAAUGUGAAUCUGAAAGAUAGCAUCCACACAAAAUUCUUGGAAUUCUCGGGUGCCAA | 0.319 |
| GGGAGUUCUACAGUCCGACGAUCCUUUCCGUAGAUAUGCCGAUGGUAAUUAUCUUUUCUUUUGGCUUAAUCCGAUUUGGUUUGGUUUUUCCCUUUCCCUGGAUUCUUUCCUACCUUCUUCAGGCUGUCAAGCAUGGAAUUCUCGGGUGCCAA | 0.591 |
| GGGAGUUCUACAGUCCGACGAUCUUCUCCCGUUCUCAAGGGAGUCAGAUCAGGGGAACUAUUCUAGGGUAUGUUGCGGGGUAUUAAGCAGGAAACCACUGUGUGGUGGGGGGCACUGGGCUUGUUGGGGCCAGUGGAAUUCUCGGGUGCCAA | 0.956 |

Study 4 — method: universal PBM; form: double-stranded DNA, one strand shown; sample: in vitro; tested at: 600 nM; direction: higher = stronger binding
Target: Sal-like protein 4, full length isoform A (SALL4, Homo sapiens, UniProt Q9UJQ4, residues 1-1053)
UniProt Q9UJQ4, sequence (whole entry, looked up): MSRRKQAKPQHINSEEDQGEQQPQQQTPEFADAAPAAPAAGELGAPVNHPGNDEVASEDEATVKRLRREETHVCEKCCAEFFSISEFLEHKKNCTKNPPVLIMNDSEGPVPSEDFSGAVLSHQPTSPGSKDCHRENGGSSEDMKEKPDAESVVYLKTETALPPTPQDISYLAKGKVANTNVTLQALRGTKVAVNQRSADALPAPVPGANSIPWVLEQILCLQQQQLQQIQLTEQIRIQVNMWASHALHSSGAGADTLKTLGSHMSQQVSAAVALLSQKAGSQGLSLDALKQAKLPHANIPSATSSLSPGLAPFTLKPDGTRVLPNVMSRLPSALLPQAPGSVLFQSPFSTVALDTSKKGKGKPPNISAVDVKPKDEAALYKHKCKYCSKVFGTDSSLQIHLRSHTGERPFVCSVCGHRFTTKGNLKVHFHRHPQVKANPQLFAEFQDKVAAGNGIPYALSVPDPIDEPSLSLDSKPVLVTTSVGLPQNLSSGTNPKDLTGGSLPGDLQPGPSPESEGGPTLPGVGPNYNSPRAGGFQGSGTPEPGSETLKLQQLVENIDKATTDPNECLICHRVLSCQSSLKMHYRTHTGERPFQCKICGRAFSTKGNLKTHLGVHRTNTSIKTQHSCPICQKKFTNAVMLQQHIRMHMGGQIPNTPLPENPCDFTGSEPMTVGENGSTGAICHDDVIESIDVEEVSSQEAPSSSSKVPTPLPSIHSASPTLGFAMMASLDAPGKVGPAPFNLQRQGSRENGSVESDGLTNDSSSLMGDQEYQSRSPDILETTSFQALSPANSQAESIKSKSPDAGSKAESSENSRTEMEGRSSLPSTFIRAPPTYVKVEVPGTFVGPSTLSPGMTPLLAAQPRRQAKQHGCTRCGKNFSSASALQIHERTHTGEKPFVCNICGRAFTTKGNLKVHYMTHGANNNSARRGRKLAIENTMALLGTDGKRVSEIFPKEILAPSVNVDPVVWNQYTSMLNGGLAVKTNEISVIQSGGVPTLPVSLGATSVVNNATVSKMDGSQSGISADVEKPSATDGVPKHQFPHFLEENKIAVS
Notes: 8-mer, flanks averaged, mean of replicates
| Oligonucleotide | E-score |
| --- | --- |
| CGCATCGC | -0.2 |
| GGAGCGAA | -0.0539 |
| CAAACATA | 0.224 |
| ACACTCCT | 0.00711 |
| ACGAAGCA | 0.0462 |
| ACTCGCAC | -0.235 |
| ATCGGGAG | -0.145 |
| CGTACCGA | -0.183 |
| ACACATGC | -0.0773 |
| AATGGCCT | -0.00758 |
| AGTAGATG | 0.109 |
| GCCCTTAC | -0.122 |
| GTGACTCA | -0.0964 |
| ATAGCGAA | 0.295 |
| CGTCGAGA | -0.021 |
| GATGTTTA | 0.161 |
| AGCTTAGA | 0.0416 |
| ATTACCGC | 0.163 |
